# Measurements collected from several papers.
# Compare with care: the assays were run in different laboratories. ± gives the spread as reported.
SMILES,assay,test system,conditions,how to read,endpoint,value
CC1=C(C2=C(C)C(=O)c3c(cc(O)c(O)c3Cc3ccccc3)C2=O)C(=O)c2cc(O)c(O)c(Cc3ccccc3)c2C1=O (racemic),spleen shrinkage,B6 Bcl-2-transgenic mice,"ip, 10 µmol/kg",reference: maximum 50%,maximal activity,77%
CCCC[C@H](NC(=O)[C@@H](NC(=O)[C@H](CC(=O)O)NC(=O)[C@H](CCC(N)=O)NC(=O)[C@H](CC(C)C)NC(=O)[C@H](CC(C)C)NC(=O)[C@H](CCCN)NC(=O)[C@H](CCCNC(=N)N)NC(=O)[C@H](C)NC(=O)[C@H](CO)NC(=O)[C@H](CC(C)C)NC(=O)[C@H](CCC(N)=O)NC(=O)[C@H](CC)NC(=O)[C@H](CC(C)C)NC(=O)[C@@H](NC(=O)[C@H](CCCN)NC(=O)[C@H](CCCNC(=N)N)NC(=O)[C@H](Cc1ccc(O)cc1)NC(=O)[C@H](CO)NC(=O)[C@H](CC(N)=O)NC(=O)[C@@H](NC(=O)[C@H](Cc1ccccc1)NC(=O)[C@@H](NC(=O)[C@H](C)NC(=O)[C@H](CC(=O)O)NC(=O)[C@@H](C)NC(=O)[C@H](Cc1ccc(O)cc1)NC)[C@@H](C)CC)[C@@H](C)O)C(C)C)[C@@H](C)CC)C(=O)N[C@@H](CC(=O)O)C(=O)N[C@@H](CCCNC(=N)N)C(=O)NCC,GH release,"rat, male, serum","subcutaneous, 3 µg/kg, 30 min",reference: reference GHRH agonist JI-38,relative potency,1.12
CN1CCc2cc(Nc3ncc(C(F)(F)F)c(NCc4cc[nH]n4)n3)ccc2C1,immunohistochemistry,"C57BL/6 mice GL261 xenograft, tumour",dose not given,reference: vehicle,CD31 expression,decreased
O=C(/C=C/c1ccccc1)OCCCC[P+](c1ccccc1)(c1ccccc1)c1ccccc1,DCFDA fluorescence,energized rat liver mitochondria,10 µM,,H2O2 level,no effect
COc1cc(Cn2ccc3cc(C(=O)NCC45CC6CC(CC(C6)C4)C5)ccc32)ccc1C(=O)NO,immunohistochemistry,"5xFAD mice, brain","intraperitoneal, 10 mg/kg daily, 2 months",reference: vehicle,amyloid plaque size,decreased
COc1ccc2c(c1OC)C(C(Cl)(Cl)Cl)N1CCc3cc4c(cc3C1=C2)OCO4 (stereo not shown),,"rat, STZ-induced diabetic, serum","oral, 12 mg/kg, day 28",,total cholesterol,85.1 ± 4.01 mg/dL
CCCC[C@H](NC(=O)[C@@H](NC(=O)[C@H](CC(=O)O)NC(=O)[C@H](CCC(N)=O)NC(=O)[C@H](CC(C)C)NC(=O)[C@H](CC(C)C)NC(=O)[C@H](CCCN)NC(=O)[C@H](CCCNC(=N)N)NC(=O)[C@H](C)NC(=O)[C@H](CO)NC(=O)[C@H](CC(C)C)NC(=O)[C@H](CCC(N)=O)NC(=O)[C@H](CC)NC(=O)[C@H](CC(C)C)NC(=O)[C@@H](NC(=O)[C@H](CCCN)NC(=O)[C@H](CCCNC(=N)N)NC(=O)[C@H](Cc1ccc(O)cc1)NC(=O)[C@H](CO)NC(=O)[C@H](CCC(N)=O)NC(=O)[C@@H](NC(=O)[C@H](Cc1c(F)c(F)c(F)c(F)c1F)NC(=O)[C@@H](NC(=O)[C@H](C)NC(=O)[C@H](CC(=O)O)NC(=O)[C@@H](C)NC(=O)[C@H](Cc1ccc(O)cc1)NC)[C@@H](C)CC)[C@@H](C)O)C(C)C)[C@@H](C)CC)C(=O)N[C@@H](CC(=O)O)C(=O)N[C@@H](CCCNC(=N)N)C(=O)NC,GH release,"rat, male, serum","subcutaneous, dose not given, 15 and 30 min",reference: reference GHRH agonist JI-38,relative potency,1 to 4 fold
COc1cc2c(cc1OC)CC(=O)N(C[C@H]1CCCN(CCOc3ccc(F)cc3)C1)CC2,VTA dopamine neurons,CSDS-susceptible male mice,"intraperitoneal, 10 mg/kg",reference: baseline,burst firing,decreased
O=C1c2c(O)cc3oc4cc(O)c(O)cc4c3c2OC1Cc1ccc(O)cc1 (stereo not shown),"ABTS scavenging, absorbance",,,,EC50,1230 µM
COc1c2c(cc3oc(COC4OC(CO)C(O)C(O)C4O)cc(=O)c13)OC(C(C)(C)O)C2 (stereo not shown),analgesia,mouse,"oral, 2 mg/kg, 0.5 h",,hot plate latency,11.8 ± 1.5 s

# For quick reference, copied from above:
SMILES,assay,test system,conditions,how to read,endpoint,value
CC1=C(C2=C(C)C(=O)c3c(cc(O)c(O)c3Cc3ccccc3)C2=O)C(=O)c2cc(O)c(O)c(Cc3ccccc3)c2C1=O (racemic),spleen shrinkage,B6 Bcl-2-transgenic mice,"ip, 10 µmol/kg",reference: maximum 50%,maximal activity,77%
